Published values of several laboratories.
Parts stem from different laboratories: compare values within a part only. Positions count from the first letter of the parent shown.

Study 1
Target: Ras GTPase-activating protein-binding protein 1, full length (G3BP1, Homo sapiens, UniProt Q13283)
UniProt Q13283, sequence (whole entry, looked up): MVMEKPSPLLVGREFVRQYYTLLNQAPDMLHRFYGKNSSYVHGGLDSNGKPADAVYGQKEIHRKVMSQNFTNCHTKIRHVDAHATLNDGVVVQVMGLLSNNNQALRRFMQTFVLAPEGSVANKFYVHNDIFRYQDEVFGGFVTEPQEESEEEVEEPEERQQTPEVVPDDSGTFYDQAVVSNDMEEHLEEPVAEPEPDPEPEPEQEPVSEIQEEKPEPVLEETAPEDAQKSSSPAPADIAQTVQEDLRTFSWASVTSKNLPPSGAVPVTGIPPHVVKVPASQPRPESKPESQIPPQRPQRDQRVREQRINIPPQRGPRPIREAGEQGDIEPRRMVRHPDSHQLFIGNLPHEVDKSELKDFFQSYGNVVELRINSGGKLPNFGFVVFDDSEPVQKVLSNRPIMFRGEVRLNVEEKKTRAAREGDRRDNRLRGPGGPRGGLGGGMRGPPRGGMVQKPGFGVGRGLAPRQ
Technique: RNA Bind-n-Seq
Form: RNA
Sample: in vitro
Concentration: 200 nM
Setting: whole 134-nt RNA, ends assumed
Together with: 150 mM KCl
Relative to: input library
Direction: higher = stronger binding
For `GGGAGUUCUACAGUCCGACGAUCGAAGAUUGGCUUAAAAUGGCUACUGUGAUGGGAACAGUGUCUUAGGGAGAUGCAGCUUGGACUUGAGGUAAAUUGAAUACUUUACAACUGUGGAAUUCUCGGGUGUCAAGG`, the log2 enrichment was 0.0816.
For `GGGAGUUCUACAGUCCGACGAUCAGUCCUGUGCUACACAUCGUAUGUACCGAAUCGGGGUUUUGGGGUUUUGGUUUUGGGAAAGUAUUAUGUUACGCCGUUCGGAUCUGCACUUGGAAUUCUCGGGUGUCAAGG`, the log2 enrichment was -0.353.
`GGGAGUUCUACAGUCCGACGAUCUGGGAGGUGGAUUUUGUUUAUUUUUUUAGCUCAUUUCCAGGGGUGGGAAUUUUUUUUUAACAUGUGUCAUGAAUAAAGUUGUUUUUGAAAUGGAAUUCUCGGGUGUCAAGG` gave a log2 enrichment of 0.144.
`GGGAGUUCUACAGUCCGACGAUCCCUGUGCUACACAUCGUAUGUACCGAAUCGGGGAAAAAGGGGUUUUUGGGGAAAAAGGGGAAAGUAUUAUGUUACGCCGUUCGGAUCUGCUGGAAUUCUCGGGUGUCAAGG` gave a log2 enrichment of 0.299.
`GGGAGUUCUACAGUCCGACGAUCAGUCCUGUGCUACACAUCGUAUGUACCGAAUCGGGCCCCGGGCCCCGGGGCCCCGGGAAAGUAUUAUGUUACGCCGUUCGGAUCUGCACUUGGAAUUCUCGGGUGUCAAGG` gave a log2 enrichment of 0.163.
`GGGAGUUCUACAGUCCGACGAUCGUCCUGUGCUACACAUCGUAUGUACCGAAUCGGGGAGGGGAAAGGGGAAAAAAAGGGGAAAGUAUUAUGUUACGCCGUUCGGAUCUGCACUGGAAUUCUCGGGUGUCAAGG` gave a log2 enrichment of 0.428.
For `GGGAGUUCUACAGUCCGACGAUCCACAGACAACACGCACCCACACAGACACAGAGGGAAGGGGUUGGGAUGGGGACAGGGUGCACAGCAGAGCGGGGUAGGACCCCAGCCCCUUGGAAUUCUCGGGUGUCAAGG`, the log2 enrichment was 1.86.
The log2 enrichment of `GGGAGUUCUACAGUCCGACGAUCCAAGUCCUGUGCUACACAUCGUAUGUACCGAAUCGGGGUGGGGUGGGGAAAGGGGAAAGUAUUAUGUUACGCCGUUCGGAUCUGCACUUCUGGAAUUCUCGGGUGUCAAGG` is reported as 1.19.

Study 2
Target: Histone acetyltransferase KAT6A, winged helix 2, GST fusion (KAT6A, Homo sapiens, UniProt Q92794, residues 85-181)
Technique: protein binding microarray
Form: double-stranded DNA, one strand shown
Sample: in vitro
Concentration: not given
Setting: 8-mer, flanks averaged, mean of 2 arrays, mostly near background
Relative to: not given
Direction: higher = stronger binding
Target sequence (chain): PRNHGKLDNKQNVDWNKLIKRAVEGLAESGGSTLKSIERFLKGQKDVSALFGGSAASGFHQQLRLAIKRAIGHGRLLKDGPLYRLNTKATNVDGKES
For `ATGAGTCA`, the E-score was -0.179.
The E-score of `GGATAGCA` is reported as 0.147.
`AACCGTCC` gave an E-score of -0.164.
`AGAATAGC` gave an E-score of -0.0577.
The E-score of `CAGCTCCC` is reported as -0.16.
The E-score of `CGTCAGCA` is reported as -0.0951.
For `CGATGGTA`, the E-score was -0.232.
The E-score of `CATTGAAC` is reported as -0.0667.

Mixed results
CCNB1: CCNB1, cyclin fold, Cln2 fusion (human)
P1: viral docking peptide; TSVRRALFTGGSD; partner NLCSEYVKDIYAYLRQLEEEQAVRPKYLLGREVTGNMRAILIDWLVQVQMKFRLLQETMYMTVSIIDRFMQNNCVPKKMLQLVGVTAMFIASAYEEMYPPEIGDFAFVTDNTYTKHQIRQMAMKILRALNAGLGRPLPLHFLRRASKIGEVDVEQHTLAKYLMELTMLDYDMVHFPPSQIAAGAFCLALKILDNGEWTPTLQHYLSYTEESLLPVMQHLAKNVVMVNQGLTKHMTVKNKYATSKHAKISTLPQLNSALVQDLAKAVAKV
P2: PafA, mature enzyme, eGFP fusion (Elizabethkingia meningoseptica, UniProt Q9KJX5); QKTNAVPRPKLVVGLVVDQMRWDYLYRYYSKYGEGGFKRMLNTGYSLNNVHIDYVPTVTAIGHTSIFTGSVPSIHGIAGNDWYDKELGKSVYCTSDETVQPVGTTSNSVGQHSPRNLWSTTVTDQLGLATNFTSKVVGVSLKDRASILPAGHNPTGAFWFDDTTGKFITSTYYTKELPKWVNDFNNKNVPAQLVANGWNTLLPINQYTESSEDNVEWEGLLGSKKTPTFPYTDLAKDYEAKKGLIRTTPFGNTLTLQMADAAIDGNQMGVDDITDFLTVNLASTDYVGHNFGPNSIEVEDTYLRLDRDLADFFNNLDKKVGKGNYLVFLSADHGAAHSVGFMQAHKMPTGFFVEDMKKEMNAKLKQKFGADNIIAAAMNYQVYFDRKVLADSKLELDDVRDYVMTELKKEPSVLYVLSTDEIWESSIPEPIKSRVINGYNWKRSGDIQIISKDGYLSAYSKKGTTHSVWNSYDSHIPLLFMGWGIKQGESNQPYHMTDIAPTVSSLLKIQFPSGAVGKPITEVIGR
Under “normalised enrichment score”, `P1 V3E` is recorded as 0.0797 (CCNB1; yeast growth competition, sequencing; yeast; strong parent motif; relative to: not given, higher = stronger binding).
`P2 W22G`: “oxyanion analog dissociation constant” 2.33 µM (tungstate, free oxyanion; microfluidic competitive inhibition; in vitro, cell-free expressed; not given, derived from inhibition constants, unchanged parent 2230 nM; lower = stronger binding).
`P1 R5V`: “normalised enrichment score” 0.794 (CCNB1; yeast growth competition, sequencing; yeast; strong parent motif; relative to: not given, higher = stronger binding).
`P2 I52G`: “oxyanion analog dissociation constant” 2.66 µM (tungstate, free oxyanion; microfluidic competitive inhibition; in vitro, cell-free expressed; not given, derived from inhibition constants, unchanged parent 2230 nM; lower = stronger binding).
